Measurements from different studies.
Parts stem from different laboratories: compare values within a part only. Changes are numbered by the printed parent chain.

Sample 1
Target: ABI1, truncated, D143A, DHFR fusion (Arabidopsis thaliana)
Technique: DHFR PCA, deep sequencing
Medium: yeast
Notes: methotrexate growth selection, single substitutions
With: (+)-ABA 0 µM
Baseline: wild-type fitted maximum
Reading: higher = stronger binding
Parent: PYL1, truncated, DHFR fusion (Arabidopsis thaliana); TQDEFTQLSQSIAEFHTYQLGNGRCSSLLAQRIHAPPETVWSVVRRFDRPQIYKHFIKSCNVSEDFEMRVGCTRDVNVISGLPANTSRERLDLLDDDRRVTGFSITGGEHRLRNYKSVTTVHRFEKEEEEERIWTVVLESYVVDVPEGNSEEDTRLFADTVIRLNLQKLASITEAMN
Substitution | relative binding score
T106D | -5.39%
F124C | 23.5%
F47C | 1.73%
L166S | -0.545%
I162W | 4.28%
E151G | 5.3%
V40Y | 3.57%
R123L | 0.661%
L82W | 44.9%
F103Y | 60%
S42L | -0.269%
R45H | -0.375%
L156C | 14%
N177R | 16.1%
S80V | 4.57%
D144Y | 3.42%
D97W | -4.08%

Sample 2
Target: Histone acetyltransferase KAT6A, both winged helices, GST fusion (KAT6A, Homo sapiens, UniProt Q92794, residues 1-181)
Technique: protein binding microarray
Form: double-stranded DNA, one strand shown
Medium: in vitro
Tested at: not given
Notes: 8-mer, flanks averaged, mean of 2 arrays, mostly near background
Baseline: not given
Reading: higher = stronger binding
Residues (chain): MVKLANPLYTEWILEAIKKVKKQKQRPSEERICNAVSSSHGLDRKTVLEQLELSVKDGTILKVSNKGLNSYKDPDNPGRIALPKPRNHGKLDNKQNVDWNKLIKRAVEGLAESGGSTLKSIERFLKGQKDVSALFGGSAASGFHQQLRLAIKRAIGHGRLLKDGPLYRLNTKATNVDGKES
Strand | E-score
GGCTCATA | -0.0361
CTTGGTCC | -0.044
CTATTAAG | -0.126
CATAAAAA | -0.071
GTTCAAGA | 0.0171
AACTGTGG | -0.0753
TGCATGCA | 0.0801
GCCTGCTA | -0.0944
GTTGAAGA | -0.0469
CCTCGACC | -0.159
GGTAGCGA | 0.0899
GACCACTA | -0.201
ATGCAGCA | -0.106
CCCTGTAA | -0.153
AACATAAT | 0.0364
CACGTACG | 0.108
GTTGCGTA | 0.111
CCCAGCCA | -0.237
ATCGTTTA | 0.0451
CCACCGGG | 0.109
GGAGACCA | -0.0657
ATGTATAG | -0.163

Sample 3
Target: Interferon regulatory factor 7, full length, phosphomimetic (IRF7, Homo sapiens, UniProt Q92985, residues 1-503, S471D/S472D/S475D/S476D/S477D/S483D/S484D/S487D)
UniProt Q92985, sequence (whole entry, unmodified, looked up): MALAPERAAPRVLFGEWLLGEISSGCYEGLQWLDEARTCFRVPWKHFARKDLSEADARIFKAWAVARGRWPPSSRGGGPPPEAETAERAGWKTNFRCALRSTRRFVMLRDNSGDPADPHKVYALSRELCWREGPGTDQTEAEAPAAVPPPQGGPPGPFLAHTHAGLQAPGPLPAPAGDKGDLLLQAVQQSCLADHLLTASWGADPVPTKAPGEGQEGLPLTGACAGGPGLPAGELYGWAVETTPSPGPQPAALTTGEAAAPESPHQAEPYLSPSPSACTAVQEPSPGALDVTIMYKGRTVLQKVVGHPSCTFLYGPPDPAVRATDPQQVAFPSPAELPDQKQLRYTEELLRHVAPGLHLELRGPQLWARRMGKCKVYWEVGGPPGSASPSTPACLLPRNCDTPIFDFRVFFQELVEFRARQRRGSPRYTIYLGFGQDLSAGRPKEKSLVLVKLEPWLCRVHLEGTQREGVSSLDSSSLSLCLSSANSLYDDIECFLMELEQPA
Technique: protein-binding microarray
Form: double-stranded DNA, one strand shown
Medium: in vitro
Tested at: 2200 nM top
Notes: 60-bp whole probe
With: salmon DNA 0.4 mg/ml
Baseline: random background probes
Reading: higher = stronger binding
All sequences stand within: GCCTAGCAC … GTCTTGATTCGCTTGACGCTGCTG
Strand | fitted relative affinity [z-score]
GACGGACTGCTACTCCTGACGTGCTAG | 0.423
GACGATATCAGTCTCGAGAGGTGCTAG | -0.137
GACGGACTGGGGCTGGGGACGTGCTAG | -0.42
GGCGATTTCAGTATCGAGACGTGCTAG | 0.594
TTAGAACTGGGGTTTCAATTAGTGCTA | 0.0399
GACGGACTGGGGACGGGGGACGTGCTA | 0.328
GACGAACTGAGTTTCGAGACGTGCTAG | 2.06
TTGGGTTTCGACTATCGGTTAGTGCTA | 3
AGTCGTGAGCCGCACAGTGGGTGCTAG | -0.965
TCAGTTCTCCCTTTCAGACTGTGCTAG | 2.75
GAATGTGTCTTAAATAGGAGAGTGCTA | -0.297
TTAGGTTACGGGTTTCGGTTAGTGCTA | 4.38
TCAGTGCTCATCTGTCATACTGTGCTA | 0.496
GACGATATCAGACTCGAGACGTGCTAG | 0.19
GACGATATCAGTTTAGAGACGTGCTAG | 0.0886
TCAGCTTTCATTTATTTACTGTGCTAG | 1.76
GACGATATCCTTCTCCTGACGTGCTAG | 1.35
GACGATCTCTGTCTCGAGACGTGCTAG | 0.57
TTAGGTATCGGACAGGGTTAGTGCTAG | 0.00185
TTAGGTTTTGGTTTCGGTTAGTGCTAG | 8.37

Sample 4
Target: RNA binding protein fox-1 homolog 2, RRM domain, GST-SBP tag (RBFOX2, Homo sapiens, UniProt O43251-10, residues 100-194)
Technique: RNA Bind-n-Seq
Form: RNA
Medium: in vitro
Tested at: 365 nM
Notes: natural RNA segment, single round, ends assumed
Baseline: no-protein control
Reading: higher = stronger binding
All sequences stand within: GGGAGUUCUACAGUCCGACGAUC … UGGAAUUCUCGGGUGCCAA
Residues (chain): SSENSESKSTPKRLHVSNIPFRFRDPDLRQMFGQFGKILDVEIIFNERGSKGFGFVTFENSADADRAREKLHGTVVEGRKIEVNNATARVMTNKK
Strand | RBNS enrichment (R)
GAGCACUUGGUGGCAUCAGAGCAGGAGGAGCCCCAGAGCCACCUCUGGUGUCCCCCCAGGCUACCUGCUCAGGAACCCCUUCUGUUCUCUGAGAAGUCAAGAGAGGACAU | 0.26
AUGGACCGCAGUGCGCUCUGCUCUGGCGCUUUGUAACUCGCUCCUCCCUCUUCGGGGGCAGACCCCACACUCCGGGCAGGUGCUCAAACCUGACGGUAAACUCUUCCCUC | 0.341
UGAUUGAGCUUCAGGCUUUACAACGUUUAUCCCUGUAGAGAUCAUCUUUACAGUUCCUCGGGAAAAUGUGAAUGUGCUGCGUUUUGUUUUCUUUACUGUAUGAAAACAGG | 0.547
UCUUUGGCUCUCUCUGAAAUGCCCGUCUCAUCCUGUCUUUUUCGAGCAUGGCUCACAGGCCUUGUGUCUGGGUGAAGGGAACCCAGGGUCAGGCUGCACUUCUGUUUCUG | 1.71
GAAUCUUUCUCUAGGGCACCUGGGCUCACAGCCUCCCUGGGCUCGGUUGUUCCUGCUGCCAAGUGCUCUGUGACCAUGGCCUUUGCCUAGUGGAGGGAACUCAGUGGAGG | 0.328
UGCUGUCCUGGUGGCUGGGCCCAGCAGGGGCCCUCACUCUUGAAGUCCAGGACUGGGUCUGACCUGGUGGGAGCACCUGCCAGAGGAUGCUCUUUCCCAGGACGGAUGGG | 0.344
CUUGUACCCAGAGUGAUUCUACAUGGGAAAAACAAACCAGCUUUUUUCAGAGAGUGACCGAAUAGGAAGAAGGGAUUCAGAAAUAUGAUGUAGUAGAACAUGCCCUGCAG | 0.354
AUAACUACUGAAAGGGGAACCUUCGUCUUUUUAAAUGUGUUAUUUCACAUUACAAUAAUAUGUGUAGUAGUUGAAUUGUGUUAUCAAAGCAUGUCCAACUUCUGUCCAGA | 0.311
CCUAGUUUUGUAUCUUGUUGUAUGACUGCCAUGAGUUCCACCAGAAAGCCACUCUAUUUUGGUCUCUGUGACAUUUUAAAUGCGUGACAGAAGUGAGCAAAUAAAGUGAG | 0.472
AGCUGGGAUUACAGGCACCCACCACCAUGCCUGGCUAAUUUUUGUAUUUUUGGUAGAGACAGGGUUUCACCAUGUUGGUCAGGCUAGUCUUGAACUCCCAACCUCAAGUG | 0.63
UUGGAUCUGUGAACCCUGUACUGCGAGAAUCACAUAGUUCCAUAUAAGUUGUCCUUAGUCUCUUGUGCUGAUUCACUGUAUAAGCAUGAUCCUGGUAAUGCACUUUGGAU | 2.7
UAGCUGUGAUUGGUGAGUCAACCGUCUGUGGCUACCAGUUACACUGAGAUUGUAACAGCAUUUUUACUUUCUGUACAACAAAAAAGCUUUGUAAAUAAAAUCUUAACAUU | 4.22

Repeated from above (sample 2):
Strand | E-score
CTTGGTCC | -0.044
CTATTAAG | -0.126
CATAAAAA | -0.071
GTTCAAGA | 0.0171
AACTGTGG | -0.0753
TGCATGCA | 0.0801
GCCTGCTA | -0.0944
GTTGAAGA | -0.0469
